Published values gathered from unrelated publications.
Parts stem from different laboratories: compare values within a part only.
UniProt Q8IWQ3, sequence (whole entry, looked up): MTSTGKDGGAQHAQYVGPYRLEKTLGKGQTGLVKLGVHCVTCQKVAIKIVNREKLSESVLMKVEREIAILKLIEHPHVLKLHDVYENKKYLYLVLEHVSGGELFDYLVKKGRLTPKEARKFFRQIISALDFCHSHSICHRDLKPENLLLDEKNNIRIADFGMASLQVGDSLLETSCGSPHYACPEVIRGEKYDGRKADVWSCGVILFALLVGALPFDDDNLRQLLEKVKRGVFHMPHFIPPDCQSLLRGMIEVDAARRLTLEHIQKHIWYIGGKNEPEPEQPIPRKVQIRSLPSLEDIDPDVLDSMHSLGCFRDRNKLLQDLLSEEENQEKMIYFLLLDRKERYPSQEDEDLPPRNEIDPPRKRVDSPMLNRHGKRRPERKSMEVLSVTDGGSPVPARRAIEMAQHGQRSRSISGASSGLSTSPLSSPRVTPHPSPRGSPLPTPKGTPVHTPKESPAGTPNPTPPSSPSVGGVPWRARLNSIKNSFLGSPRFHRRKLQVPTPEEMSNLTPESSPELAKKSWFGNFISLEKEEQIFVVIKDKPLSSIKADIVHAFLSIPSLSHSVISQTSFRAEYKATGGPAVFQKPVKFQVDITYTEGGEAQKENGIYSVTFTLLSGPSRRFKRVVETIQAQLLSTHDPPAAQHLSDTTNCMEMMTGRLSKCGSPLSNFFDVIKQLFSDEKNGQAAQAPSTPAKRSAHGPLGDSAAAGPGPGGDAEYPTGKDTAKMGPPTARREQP
UniProt P00519, sequence (whole entry, unmodified, looked up): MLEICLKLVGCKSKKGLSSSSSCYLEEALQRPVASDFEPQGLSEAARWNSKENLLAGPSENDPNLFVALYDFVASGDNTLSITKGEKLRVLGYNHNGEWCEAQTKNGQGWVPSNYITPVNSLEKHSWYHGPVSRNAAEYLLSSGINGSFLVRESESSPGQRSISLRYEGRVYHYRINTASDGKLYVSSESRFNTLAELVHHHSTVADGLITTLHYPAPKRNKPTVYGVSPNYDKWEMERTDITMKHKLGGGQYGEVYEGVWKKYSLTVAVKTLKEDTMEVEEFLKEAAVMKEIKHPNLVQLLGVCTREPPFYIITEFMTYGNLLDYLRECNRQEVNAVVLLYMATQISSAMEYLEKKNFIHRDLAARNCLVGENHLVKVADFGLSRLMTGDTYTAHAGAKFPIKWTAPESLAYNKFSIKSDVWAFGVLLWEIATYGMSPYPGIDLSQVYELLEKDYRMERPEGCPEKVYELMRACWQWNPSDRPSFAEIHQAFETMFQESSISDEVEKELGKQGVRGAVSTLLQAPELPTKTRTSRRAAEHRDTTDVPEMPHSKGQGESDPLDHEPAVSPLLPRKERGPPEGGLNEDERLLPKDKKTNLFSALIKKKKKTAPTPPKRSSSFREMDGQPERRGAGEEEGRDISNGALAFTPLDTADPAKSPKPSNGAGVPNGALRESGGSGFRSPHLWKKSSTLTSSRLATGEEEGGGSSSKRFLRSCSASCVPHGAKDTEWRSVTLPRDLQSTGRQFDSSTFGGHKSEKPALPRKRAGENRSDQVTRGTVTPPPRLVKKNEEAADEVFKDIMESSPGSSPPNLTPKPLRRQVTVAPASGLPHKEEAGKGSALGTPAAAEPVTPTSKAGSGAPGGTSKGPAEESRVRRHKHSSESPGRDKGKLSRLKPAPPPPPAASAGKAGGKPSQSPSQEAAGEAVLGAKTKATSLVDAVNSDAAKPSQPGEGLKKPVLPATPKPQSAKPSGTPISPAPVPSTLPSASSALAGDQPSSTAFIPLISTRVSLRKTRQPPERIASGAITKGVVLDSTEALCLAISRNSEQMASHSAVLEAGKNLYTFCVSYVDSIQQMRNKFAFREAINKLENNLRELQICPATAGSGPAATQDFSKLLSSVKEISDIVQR
UniProt P42336, sequence (whole entry, unmodified, looked up): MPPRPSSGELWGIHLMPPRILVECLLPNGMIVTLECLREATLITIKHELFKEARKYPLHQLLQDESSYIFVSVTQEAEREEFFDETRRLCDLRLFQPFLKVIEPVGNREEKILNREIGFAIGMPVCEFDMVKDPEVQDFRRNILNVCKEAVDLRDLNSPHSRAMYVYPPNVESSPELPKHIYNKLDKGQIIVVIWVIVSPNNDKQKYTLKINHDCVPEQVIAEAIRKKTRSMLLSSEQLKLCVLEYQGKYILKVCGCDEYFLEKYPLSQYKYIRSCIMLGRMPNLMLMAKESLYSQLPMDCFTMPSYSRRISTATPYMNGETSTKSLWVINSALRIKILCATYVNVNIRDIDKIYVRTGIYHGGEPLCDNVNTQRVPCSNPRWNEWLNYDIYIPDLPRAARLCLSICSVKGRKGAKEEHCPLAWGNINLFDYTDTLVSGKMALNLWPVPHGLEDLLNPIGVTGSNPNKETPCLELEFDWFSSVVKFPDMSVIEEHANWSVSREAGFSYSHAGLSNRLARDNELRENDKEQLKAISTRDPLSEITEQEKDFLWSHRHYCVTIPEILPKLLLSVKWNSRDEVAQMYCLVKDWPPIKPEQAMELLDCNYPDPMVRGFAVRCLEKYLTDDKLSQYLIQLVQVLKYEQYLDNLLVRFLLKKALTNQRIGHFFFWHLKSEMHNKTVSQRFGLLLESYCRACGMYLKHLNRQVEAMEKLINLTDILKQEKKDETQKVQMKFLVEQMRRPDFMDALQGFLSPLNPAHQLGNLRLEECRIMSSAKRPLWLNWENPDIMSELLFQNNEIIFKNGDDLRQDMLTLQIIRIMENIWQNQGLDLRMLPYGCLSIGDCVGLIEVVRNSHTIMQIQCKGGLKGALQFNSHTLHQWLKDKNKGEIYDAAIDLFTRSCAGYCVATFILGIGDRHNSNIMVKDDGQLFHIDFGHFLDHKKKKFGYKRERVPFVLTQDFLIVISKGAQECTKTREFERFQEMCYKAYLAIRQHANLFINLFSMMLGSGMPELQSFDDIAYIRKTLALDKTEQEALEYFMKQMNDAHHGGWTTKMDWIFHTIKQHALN

Set 1
Target: Sal-like protein 4, full length isoform B (SALL4, Homo sapiens, UniProt Q9UJQ4-2, residues 1-616)
Method: universal PBM
Molecule type: double-stranded DNA, one strand shown
Medium: in vitro
Concentration: not given
Setting: 8-mer, flanks averaged, mean of replicates
Direction: higher = stronger binding
Quantity: E-score
Residues (chain): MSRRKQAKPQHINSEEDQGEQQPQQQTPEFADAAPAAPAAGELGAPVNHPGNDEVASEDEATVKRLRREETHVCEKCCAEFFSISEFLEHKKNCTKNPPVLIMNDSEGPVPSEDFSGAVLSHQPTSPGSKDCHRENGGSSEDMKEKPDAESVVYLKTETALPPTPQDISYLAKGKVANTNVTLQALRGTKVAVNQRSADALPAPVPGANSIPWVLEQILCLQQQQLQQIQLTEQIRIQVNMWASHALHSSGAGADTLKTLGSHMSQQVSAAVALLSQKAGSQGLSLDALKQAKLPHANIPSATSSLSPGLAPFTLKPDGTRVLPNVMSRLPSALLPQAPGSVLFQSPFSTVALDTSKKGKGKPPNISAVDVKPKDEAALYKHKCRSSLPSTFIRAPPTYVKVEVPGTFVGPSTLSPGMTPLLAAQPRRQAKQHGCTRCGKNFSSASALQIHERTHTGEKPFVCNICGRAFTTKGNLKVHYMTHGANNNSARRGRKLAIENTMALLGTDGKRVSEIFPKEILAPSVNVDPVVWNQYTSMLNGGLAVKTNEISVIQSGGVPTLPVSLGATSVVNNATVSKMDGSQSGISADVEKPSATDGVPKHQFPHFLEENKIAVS
AGCCCGGA: -0.385
CTTCGACA: 0.0112
CCTTTGAG: -0.154
ACTCCACG: -0.231
ATACAAAC: 0.307
CGACGTTC: -0.238
CTCACCGC: -0.273
AGGGTGTG: -0.111

Set 2
Target: Calcium/calmodulin-dependent protein kinase type II subunit alpha (CAMK2A, Homo sapiens, UniProt Q9UQM7)
UniProt Q9UQM7, sequence (whole entry, looked up): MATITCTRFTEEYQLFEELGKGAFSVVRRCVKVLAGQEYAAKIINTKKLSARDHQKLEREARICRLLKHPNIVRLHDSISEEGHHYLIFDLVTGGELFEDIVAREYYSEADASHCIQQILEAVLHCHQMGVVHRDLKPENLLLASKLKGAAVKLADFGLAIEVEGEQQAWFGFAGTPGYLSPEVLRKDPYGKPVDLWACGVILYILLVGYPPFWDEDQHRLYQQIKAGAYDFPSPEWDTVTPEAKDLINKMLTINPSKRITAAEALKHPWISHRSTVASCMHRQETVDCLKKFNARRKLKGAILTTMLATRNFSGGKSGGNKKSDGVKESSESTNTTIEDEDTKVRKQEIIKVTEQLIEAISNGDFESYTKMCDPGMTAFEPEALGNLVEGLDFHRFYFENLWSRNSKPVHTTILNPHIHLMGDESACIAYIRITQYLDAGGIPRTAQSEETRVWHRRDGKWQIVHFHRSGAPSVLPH
Effect on: enzyme activity
Action: inhibitor
Concentration: 0.5 µM
Baseline: control
Quantity: remaining activity
N#CC(C#N)=C(N)/C(C#N)=C/c1ccc(O)cc1: 103%
COc1ccc(OC)c2c(=S)c3ccccc3[nH]c12: 100%
Nc1ncnc2n[nH]c(Nc3ccc(F)cc3)c12: 105%
COc1cc2ncnc(Nc3ccc(Oc4ccccc4)cc3)c2cc1OC: 102%
CNC(=O)c1cc(Oc2ccc(NC(=O)Nc3ccc(Cl)c(C(F)(F)F)c3)cc2)ccn1: 95.3%
CO[C@H]1C[C@@H]2CC[C@@H](C)[C@@](O)(O2)C(=O)C(=O)N2CCCC[C@H]2C(=O)O[C@H]([C@H](C)C[C@@H]2CC[C@@H](O)[C@H](OC)C2)CC(=O)[C@H](C)/C=C(\C)[C@@H](O)[C@@H](OC)C(=O)[C@H](C)C[C@H](C)/C=C/C=C/C=C/1C: 105%
C#Cc1cccc(Nc2ncnc3cc(OCCOC)c(OCCOC)cc23)c1: 97.6%
OCC(O)CCON=C1C(c2c(O)[nH]c3ccccc23)=Nc2ccccc21 (centres unmarked): 12.2%
Cc1nc(-c2ccccc2)c(-c2ccncc2)o1: 104%
COc1cc2nccc(Oc3ccc(NC(=S)NC(=O)c4ccccc4C)cc3)c2cc1OC: 85.6%
O=S(=O)(c1cccc2cnccc12)N1CCCNCC1: 99.9%
NCCNc1ncc(C(N)=O)c(Nc2cccc(C(F)(F)F)c2)n1: 82.5%
Cn1c2ccccc2c2c3c(c4c5ccccc5n(CCC#N)c4c21)CNC3=O: 19.1%
O=C1NC(=O)C(c2cn(CCCn3ccnc3)c3ccccc23)=C1Nc1ccccc1: 95.5%
O=C(Nc1cccc(Nc2cc(Nc3cccc(C(F)(F)F)c3)ncn2)c1)C1CC1: 104%
Nc1ccc2ncnc(NCCc3ccc(Oc4ccccc4)cc3)c2c1: 71.3%

Set 3
Target: Eukaryotic initiation factor 4A-I (EIF4A1, Homo sapiens, UniProt P60842, residues 1-406, full length assumed)
UniProt P60842, sequence (whole entry, looked up): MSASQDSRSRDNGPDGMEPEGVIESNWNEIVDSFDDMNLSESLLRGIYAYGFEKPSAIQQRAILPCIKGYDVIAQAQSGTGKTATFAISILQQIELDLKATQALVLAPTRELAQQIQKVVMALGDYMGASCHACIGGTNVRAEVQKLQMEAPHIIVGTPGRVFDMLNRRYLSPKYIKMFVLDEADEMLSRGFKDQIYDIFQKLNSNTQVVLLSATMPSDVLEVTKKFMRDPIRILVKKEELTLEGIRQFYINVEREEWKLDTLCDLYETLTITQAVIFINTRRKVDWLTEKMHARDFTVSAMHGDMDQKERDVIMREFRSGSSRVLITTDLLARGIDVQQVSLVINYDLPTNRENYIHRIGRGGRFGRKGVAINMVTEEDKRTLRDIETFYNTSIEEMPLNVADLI
Method: RNA Bind-n-Seq
Molecule type: RNA
Medium: in vitro
Concentration: 90 pmol
Setting: 4-mer, random 30-nt RNA, single round
With: 3 µM iPr-DMDA-PatA, 2 mM ADP, 2 mM phosphate
Baseline: input library
Direction: higher = stronger binding
Quantity: 4-mer enrichment
GCAA: 1.05 fold
CACU: 0.984 fold
CGGU: 0.782 fold
UUGA: 1.21 fold
AAGC: 1.08 fold
UCAU: 1.05 fold
CGUA: 0.989 fold
UGAC: 1.09 fold

Set 4
Compound: O=C(NC[C@@H]1[C@H]2CN(C(=O)OCc3cc(C(F)(F)F)cc(C(F)(F)F)c3)C[C@@H]12)c1ccc2[nH]nnc2c1
Method: competition with immobilised ligand
Concentration: 1 µM
Quantity: remaining binding
Tyrosine-protein kinase ABL1, non-phosphorylated (ABL1, Homo sapiens, UniProt P00519, F317I); binding: 89%
Phosphatidylinositol 4,5-bisphosphate 3-kinase catalytic subunit alpha isoform (PIK3CA, Homo sapiens, UniProt P42336, M1043I); cell-free assay: 95%
Serine/threonine-protein kinase BRSK2 (BRSK2, Homo sapiens, UniProt Q8IWQ3); cell-free assay: 96%

For quick reference, copied from above (set 2):
N#CC(C#N)=C(N)/C(C#N)=C/c1ccc(O)cc1: 103%
COc1ccc(OC)c2c(=S)c3ccccc3[nH]c12: 100%
Nc1ncnc2n[nH]c(Nc3ccc(F)cc3)c12: 105%
